Results from different studies.
Protocols differ between the studies behind these lines. “And” joins repeats or separate records; there may be more than shown. Converted amounts (≈) assume the structure as drawn.
Organism: Streptococcus pyogenes

`CC[C@H]1OC(=O)[C@H](C)[C@@H](O[C@H]2C[C@@](C)(OC)[C@@H](O)[C@H](C)O2)[C@H](C)[C@@H](O[C@@H]2O[C@H](C)C[C@H](N(C)C)[C@H]2O)[C@](C)(O)C[C@@H](C)C(=O)[C@H](C)[C@@H](O)[C@]1(C)O` gave an MIC of over 64 mg/L (broth microdilution; 8007).
`CN[C@H](CC(C)C)C(=O)N[C@H]1C(=O)N[C@@H](CC(N)=O)C(=O)N[C@H]2C(=O)N[C@H]3C(=O)N[C@H](C(=O)N[C@H](C(=O)O)c4cc(O)cc(O)c4-c4cc3ccc4O)[C@H](O)c3ccc(c(Cl)c3)Oc3cc2cc(c3O[C@@H]2O[C@H](CO)[C@@H](O)[C@H](O)[C@H]2O[C@H]2C[C@](C)(N)[C@H](O)[C@H](C)O2)Oc2ccc(cc2Cl)[C@H]1O` has an MIC50 of 0.5 mg/L (≈ 0.345 µM) (broth microdilution).
For `OB(O)c1csc2ccccc12`, the growth was 71.4% and 44.5% and 43.9% and 48.5% and 89.3% (100 µM, 10 h; reference: untreated).
With `CN[C@H](CC(C)C)C(=O)N[C@H]1C(=O)N[C@@H](CC(N)=O)C(=O)N[C@H]2C(=O)N[C@H]3C(=O)N[C@H](C(=O)N[C@H](C(=O)O)c4cc(O)cc(O)c4-c4cc3ccc4O)[C@H](O)c3ccc(c(Cl)c3)Oc3cc2cc(c3O[C@@H]2O[C@H](CO)[C@@H](O)[C@H](O)[C@H]2O[C@H]2C[C@](C)(N)[C@H](O)[C@H](C)O2)Oc2ccc(cc2Cl)[C@H]1O` the MIC range was 0.5 mg/L (≈ 0.345 µM) (ATCC 13813).
The MIC90 of `CC(=O)NC[C@H]1CN(c2ccc(N3CCOCC3)c(F)c2)C(=O)O1` is reported as 0.5 mg/L (≈ 1.48 µM) (broth microdilution).
`CC[C@H]1OC(=O)[C@H](C)[C@@H](O[C@H]2C[C@@](C)(OC)[C@@H](O)[C@H](C)O2)[C@H](C)[C@@H](O[C@@H]2O[C@H](C)C[C@H](N(C)C)[C@H]2O)[C@](C)(O)C[C@@H](C)C(=O)[C@H](C)[C@@H](O)[C@]1(C)O` has an MIC of under 1 mg/L (broth microdilution; sensitive clinical isolate; overnight, 37 °C).
`CC(C)C[C@@H](NC(=O)[C@H](C)NC(=O)CNC(=O)[C@@H](NC=O)C(C)C)C(=O)N[C@@H](C)C(=O)N[C@@H](C(=O)N[C@H](C(=O)N[C@@H](C(=O)N[C@@H](Cc1c[nH]c2ccccc12)C(=O)N[C@H](CC(C)C)C(=O)N[C@@H](Cc1c[nH]c2ccccc12)C(=O)N[C@H](CC(C)C)C(=O)N[C@@H](Cc1c[nH]c2ccccc12)C(=O)N[C@@H](C(=O)N[C@@H](Cc1c[nH]c2ccccc12)C(=O)NCCO)C(C)C)[C@H](C)O)C(C)C)C(C)C` has an MIC of 0.067 µM (broth microdilution; SSI-9).
The MIC of `CN[C@H](CC(C)C)C(=O)N[C@H]1C(=O)N[C@@H](CC(N)=O)C(=O)N[C@H]2C(=O)N[C@H]3C(=O)N[C@H](C(=O)N[C@H](C(=O)O)c4cc(O)cc(O)c4-c4cc3ccc4O)[C@H](O)c3ccc(c(Cl)c3)Oc3cc2cc(c3O[C@@H]2O[C@H](CO)[C@@H](O)[C@H](O)[C@H]2O[C@H]2C[C@](C)(N)[C@H](O)[C@H](C)O2)Oc2ccc(cc2Cl)[C@H]1O` is reported as under 1 mg/L (broth microdilution; sensitive clinical isolate; overnight, 37 °C).
The MIC of `NC(=O)CC[C@@H](C(=O)NC[C@H]1O[C@@H](c2c[nH]c(=O)[nH]c2=O)[C@H](O)[C@@H]1O)N(O)C(=O)CN=C(N)N` is reported as 3.13 mg/L (12384; 16 h).

Some of these lines once more:
With `CN[C@H](CC(C)C)C(=O)N[C@H]1C(=O)N[C@@H](CC(N)=O)C(=O)N[C@H]2C(=O)N[C@H]3C(=O)N[C@H](C(=O)N[C@H](C(=O)O)c4cc(O)cc(O)c4-c4cc3ccc4O)[C@H](O)c3ccc(c(Cl)c3)Oc3cc2cc(c3O[C@@H]2O[C@H](CO)[C@@H](O)[C@H](O)[C@H]2O[C@H]2C[C@](C)(N)[C@H](O)[C@H](C)O2)Oc2ccc(cc2Cl)[C@H]1O` the MIC range was 0.5 mg/L (≈ 0.345 µM) (ATCC 13813).
